Assay results pooled from the literature.
Protocols differ between the studies behind these lines. ± marks the error that the study gave.
MRGPRX2: Mas-related G-protein coupled receptor member X2 (MRGPRX2, Homo sapiens, UniProt Q96LB1)
Chain of UniProt Q96LB1 (whole entry, looked up): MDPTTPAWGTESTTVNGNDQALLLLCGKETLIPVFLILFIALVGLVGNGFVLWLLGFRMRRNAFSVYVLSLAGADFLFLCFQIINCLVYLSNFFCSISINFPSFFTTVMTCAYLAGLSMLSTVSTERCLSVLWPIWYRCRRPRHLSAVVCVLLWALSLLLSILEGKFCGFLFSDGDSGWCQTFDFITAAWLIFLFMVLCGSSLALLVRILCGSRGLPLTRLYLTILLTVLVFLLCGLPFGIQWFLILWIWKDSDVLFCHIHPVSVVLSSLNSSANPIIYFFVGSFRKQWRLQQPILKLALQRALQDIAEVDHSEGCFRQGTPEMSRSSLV
CHRM3: Muscarinic acetylcholine receptor M3 (CHRM3, Homo sapiens, UniProt P20309)
Chain of UniProt P20309 (whole entry, looked up): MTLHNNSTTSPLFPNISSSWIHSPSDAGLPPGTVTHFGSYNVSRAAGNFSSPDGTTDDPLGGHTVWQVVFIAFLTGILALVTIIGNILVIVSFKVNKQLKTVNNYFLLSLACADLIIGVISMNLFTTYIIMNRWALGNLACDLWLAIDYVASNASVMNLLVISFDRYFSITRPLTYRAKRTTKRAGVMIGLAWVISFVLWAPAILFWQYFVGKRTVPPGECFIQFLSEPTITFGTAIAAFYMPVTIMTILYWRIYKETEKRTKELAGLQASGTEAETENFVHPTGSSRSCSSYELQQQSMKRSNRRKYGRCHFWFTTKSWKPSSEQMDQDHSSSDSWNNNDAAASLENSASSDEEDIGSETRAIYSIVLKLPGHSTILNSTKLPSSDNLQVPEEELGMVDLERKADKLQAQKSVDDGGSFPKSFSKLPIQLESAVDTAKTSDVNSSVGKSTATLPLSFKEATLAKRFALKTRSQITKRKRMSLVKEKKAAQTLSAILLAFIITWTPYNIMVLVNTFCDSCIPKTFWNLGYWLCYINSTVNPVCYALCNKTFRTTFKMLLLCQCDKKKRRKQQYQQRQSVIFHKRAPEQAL
Chrnd/Chrna1/Chrne: Chrnd/Chrna1/Chrne (Mus musculus, UniProt P02716+P04756+P20782)
Chain of UniProt Q02153 (whole entry, unmodified, looked up): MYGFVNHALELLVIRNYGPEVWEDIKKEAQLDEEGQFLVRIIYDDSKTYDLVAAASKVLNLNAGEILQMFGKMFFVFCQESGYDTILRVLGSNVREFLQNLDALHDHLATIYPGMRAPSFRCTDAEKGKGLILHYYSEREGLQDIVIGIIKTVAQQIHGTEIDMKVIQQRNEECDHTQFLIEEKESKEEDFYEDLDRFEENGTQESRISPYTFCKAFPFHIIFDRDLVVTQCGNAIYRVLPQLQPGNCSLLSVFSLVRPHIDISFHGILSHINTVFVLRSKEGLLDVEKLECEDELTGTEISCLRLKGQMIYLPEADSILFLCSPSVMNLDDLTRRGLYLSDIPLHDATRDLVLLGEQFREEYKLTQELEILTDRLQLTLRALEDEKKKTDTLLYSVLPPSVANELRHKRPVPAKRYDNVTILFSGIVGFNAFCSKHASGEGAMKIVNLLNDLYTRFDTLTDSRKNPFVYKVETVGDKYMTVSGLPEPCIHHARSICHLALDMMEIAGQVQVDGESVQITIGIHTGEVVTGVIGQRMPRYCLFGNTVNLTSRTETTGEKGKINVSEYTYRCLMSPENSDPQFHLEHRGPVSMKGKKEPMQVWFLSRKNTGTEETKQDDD
Chain of UniProt P02716 (whole entry, looked up): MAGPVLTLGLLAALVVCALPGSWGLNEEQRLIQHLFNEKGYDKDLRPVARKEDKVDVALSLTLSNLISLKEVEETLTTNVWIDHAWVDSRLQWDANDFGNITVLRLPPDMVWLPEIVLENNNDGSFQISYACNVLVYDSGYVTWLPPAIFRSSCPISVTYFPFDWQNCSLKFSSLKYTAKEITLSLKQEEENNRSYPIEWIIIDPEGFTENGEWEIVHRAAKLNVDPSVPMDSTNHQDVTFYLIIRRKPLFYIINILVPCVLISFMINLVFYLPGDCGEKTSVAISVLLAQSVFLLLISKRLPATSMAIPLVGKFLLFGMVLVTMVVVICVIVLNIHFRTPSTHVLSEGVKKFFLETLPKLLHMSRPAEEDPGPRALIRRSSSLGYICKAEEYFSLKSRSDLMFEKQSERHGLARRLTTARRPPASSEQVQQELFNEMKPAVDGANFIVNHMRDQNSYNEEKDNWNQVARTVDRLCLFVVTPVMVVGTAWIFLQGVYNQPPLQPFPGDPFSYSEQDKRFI
Chain of UniProt P20782 (whole entry, looked up): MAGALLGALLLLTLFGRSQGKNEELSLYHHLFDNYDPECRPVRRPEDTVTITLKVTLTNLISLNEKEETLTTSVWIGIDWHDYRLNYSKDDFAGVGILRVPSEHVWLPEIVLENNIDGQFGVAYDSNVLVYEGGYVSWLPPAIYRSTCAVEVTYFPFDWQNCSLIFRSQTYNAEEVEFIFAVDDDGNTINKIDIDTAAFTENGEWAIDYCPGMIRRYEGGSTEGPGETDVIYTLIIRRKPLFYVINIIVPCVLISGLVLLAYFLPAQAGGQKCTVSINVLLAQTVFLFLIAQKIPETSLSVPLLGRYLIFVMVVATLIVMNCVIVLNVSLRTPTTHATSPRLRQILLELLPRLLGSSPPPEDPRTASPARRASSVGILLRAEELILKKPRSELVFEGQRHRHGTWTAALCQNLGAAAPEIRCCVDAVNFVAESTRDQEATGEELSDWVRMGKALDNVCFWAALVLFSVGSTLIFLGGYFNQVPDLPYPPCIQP
Chain of UniProt Q02108 (whole entry, unmodified, looked up): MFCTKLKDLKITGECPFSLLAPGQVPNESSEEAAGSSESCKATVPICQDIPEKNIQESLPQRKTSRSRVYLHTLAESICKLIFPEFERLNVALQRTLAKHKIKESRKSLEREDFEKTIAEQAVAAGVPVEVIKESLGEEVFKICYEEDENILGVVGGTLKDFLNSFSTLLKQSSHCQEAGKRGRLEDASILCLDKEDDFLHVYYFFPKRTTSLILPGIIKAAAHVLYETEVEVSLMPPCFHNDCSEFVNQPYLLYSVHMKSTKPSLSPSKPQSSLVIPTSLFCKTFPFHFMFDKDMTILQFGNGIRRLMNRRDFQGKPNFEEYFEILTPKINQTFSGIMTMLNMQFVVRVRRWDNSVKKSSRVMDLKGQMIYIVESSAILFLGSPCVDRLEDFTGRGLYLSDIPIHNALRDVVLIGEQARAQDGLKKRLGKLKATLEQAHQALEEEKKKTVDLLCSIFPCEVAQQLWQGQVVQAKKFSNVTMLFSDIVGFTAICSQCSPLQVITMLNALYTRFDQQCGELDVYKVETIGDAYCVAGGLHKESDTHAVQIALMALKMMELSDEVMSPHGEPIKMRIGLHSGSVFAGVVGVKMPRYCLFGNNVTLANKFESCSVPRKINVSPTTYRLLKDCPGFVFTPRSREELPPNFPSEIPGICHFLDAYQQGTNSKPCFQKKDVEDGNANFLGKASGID
Chain of UniProt P04756 (whole entry, looked up): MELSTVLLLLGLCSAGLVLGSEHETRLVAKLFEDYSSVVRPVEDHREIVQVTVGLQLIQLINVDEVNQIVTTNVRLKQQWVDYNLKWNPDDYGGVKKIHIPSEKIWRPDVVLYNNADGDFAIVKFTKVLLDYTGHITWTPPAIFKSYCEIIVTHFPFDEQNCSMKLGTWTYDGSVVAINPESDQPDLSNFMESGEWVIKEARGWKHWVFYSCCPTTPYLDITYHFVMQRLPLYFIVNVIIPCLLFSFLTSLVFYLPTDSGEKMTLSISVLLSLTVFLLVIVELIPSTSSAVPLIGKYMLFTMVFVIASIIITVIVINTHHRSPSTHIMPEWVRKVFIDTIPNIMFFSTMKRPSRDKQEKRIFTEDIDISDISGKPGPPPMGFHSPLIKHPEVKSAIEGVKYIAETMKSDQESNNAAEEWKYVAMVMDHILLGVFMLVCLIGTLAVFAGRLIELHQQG
Chain of UniProt Q704Y3 (whole entry, unmodified, looked up): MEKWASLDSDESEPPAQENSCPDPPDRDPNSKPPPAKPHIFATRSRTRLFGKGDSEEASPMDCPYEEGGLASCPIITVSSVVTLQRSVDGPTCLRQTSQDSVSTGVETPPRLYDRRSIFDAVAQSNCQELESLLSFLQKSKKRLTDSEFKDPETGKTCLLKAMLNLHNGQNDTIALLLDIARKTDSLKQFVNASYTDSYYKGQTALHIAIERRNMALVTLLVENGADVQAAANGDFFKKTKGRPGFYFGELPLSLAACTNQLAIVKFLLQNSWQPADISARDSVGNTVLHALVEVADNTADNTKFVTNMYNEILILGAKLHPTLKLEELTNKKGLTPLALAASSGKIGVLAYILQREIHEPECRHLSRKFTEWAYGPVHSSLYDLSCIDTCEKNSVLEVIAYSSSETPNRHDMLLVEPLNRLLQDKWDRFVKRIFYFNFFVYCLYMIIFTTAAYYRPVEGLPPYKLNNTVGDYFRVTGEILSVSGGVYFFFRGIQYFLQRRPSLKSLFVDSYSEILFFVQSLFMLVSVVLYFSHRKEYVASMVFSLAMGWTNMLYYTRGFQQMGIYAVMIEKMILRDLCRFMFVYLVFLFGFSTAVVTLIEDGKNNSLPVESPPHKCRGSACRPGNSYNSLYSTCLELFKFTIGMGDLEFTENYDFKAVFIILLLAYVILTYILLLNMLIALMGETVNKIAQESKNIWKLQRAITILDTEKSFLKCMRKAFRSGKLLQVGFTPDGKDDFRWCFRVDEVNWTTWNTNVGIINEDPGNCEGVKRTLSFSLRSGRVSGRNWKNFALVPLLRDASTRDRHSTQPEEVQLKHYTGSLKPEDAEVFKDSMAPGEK
Chain of UniProt P02708 (whole entry, looked up): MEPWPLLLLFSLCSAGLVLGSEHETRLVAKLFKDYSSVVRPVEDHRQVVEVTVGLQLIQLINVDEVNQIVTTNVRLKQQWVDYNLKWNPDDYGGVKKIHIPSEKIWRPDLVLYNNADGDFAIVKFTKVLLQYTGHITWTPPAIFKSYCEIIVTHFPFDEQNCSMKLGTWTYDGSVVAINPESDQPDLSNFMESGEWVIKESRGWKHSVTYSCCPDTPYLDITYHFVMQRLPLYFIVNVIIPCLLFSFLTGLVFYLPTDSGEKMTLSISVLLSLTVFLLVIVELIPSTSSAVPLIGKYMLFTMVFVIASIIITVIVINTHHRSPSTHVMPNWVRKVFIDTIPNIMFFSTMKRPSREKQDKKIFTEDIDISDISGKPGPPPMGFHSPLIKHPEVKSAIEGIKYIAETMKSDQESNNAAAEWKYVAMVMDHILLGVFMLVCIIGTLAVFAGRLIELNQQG

| Structure (SMILES) | target | test | system | conditions | EC50 |
| --- | --- | --- | --- | --- | --- |
| CC[C@H](C)[C@H](NC(=O)[C@H](CCCCN)NC(=O)[C@H](CCC(N)=O)NC(=O)[C@H](CCCNC(=N)N)NC(=O)[C@H](CC(N)=O)NC(=O)[C@H](CO)NC(=O)[C@H](CO)NC(=O)[C@H](Cc1ccccc1)NC(C)=O)C(=O)N[C@@H](CC(C)C)C(=O)N[C@@H](CCC(=O)O)C(=O)N[C@@H](CCCNC(=N)N)C(=O)N[C@H](C(=O)N[C@@H](CCC(=O)O)C(=O)N[C@H](C(=O)N[C@@H](CC(C)C)C(=O)N[C@@H](CC(N)=O)C(=O)N[C@@H](CCC(N)=O)C(=O)N[C@@H](CCC(=O)O)C(=O)N[C@@H](Cc1c[nH]c2ccccc12)C(N)=O)[C@@H](C)CC)[C@@H](C)O | MRGPRX2 | β-arrestin-2 recruitment, agonist | – | – | > 20 µM |
| Cc1cc(N2CCNCC2)nc2ccccc12 | CHRM3 | ERK1/2 phosphorylation, agonist | CHO cells | – | > 20 µM |
| CCCCC/C=C\C/C=C\C/C=C\C/C=C\CCCC(=O)NCCO | Trpv1 (Mus musculus, UniProt Q704Y3, S513T) | ion current, agonist, whole-cell patch clamp | – | 24 °C, S513T, +80 mV | 5.24 ± 0.89 µM |
| O=C(O)c1ccc(CN2C(=O)CN(C(=O)c3ccco3)c3ccc(-c4ccccc4)cc32)cc1 | Soluble guanylate cyclase alpha1/beta1 complex (Homo sapiens, UniProt Q02108+Q02153) | enzyme activity, activator, purified recombinant enzyme | – | – | 0.01 µM |
| c1cc(N2CCNCC2)c2cc[nH]c2c1 | CHRM3 | ERK1/2 phosphorylation, agonist | CHO cells | – | > 20 µM |
| O=C(C1CCCCC1)N1CC(=O)N2CCc3ccccc3[C@@H]2C1 | uncharacterized protein (Schistosoma haematobium, UniProt A0A922LF77) | – | – | – | 0.367 ± 0.101 µM |
| O=C(O)c1ccc(CN2C(=O)CN(C(=O)c3ccco3)c3cc(-c4ccccc4)c(Oc4ccc(C(=O)O)cc4)cc32)cc1 | Soluble guanylate cyclase alpha1/beta1 complex (Homo sapiens, UniProt Q02108+Q02153, H105A) | activator | – | α1S/β1 variant | 1.81 µM |
| O=C1c2ccccc2C(=O)C1C(=O)C(c1ccccc1)c1ccc(Cl)cc1 (stereo not shown) | Nuclear receptor subfamily 1 group I member 3 (Homo sapiens, UniProt Q14994) | cell-based | – | – | 45.5 ± 0.58 µM |
| CNC(C)Cc1ccc2n[se]nc2c1 (stereo not shown) | SLC6A3 (Homo sapiens, UniProt Q01959) | transporter current, whole-cell patch clamp | HEK293 | holding -60 mV | 5.97 µM |
| C[C@@H](O)[C@@H]1NC(=O)[C@H](CCCCN)NC(=O)[C@H](Cc2c[nH]c3ccccc23)NC(=O)[C@H](Cc2ccccc2)NC(=O)[C@H](Cc2ccccc2)NC(=O)[C@H](CC(N)=O)NC(=O)[C@H](CCCCN)NC(=O)[C@@H](NC(=O)[C@@H]2CCCN2)CSSC[C@@H](C(=O)N[C@@H](CCCCN)C(=O)O)NC(=O)[C@H](CO)NC(=O)[C@H](CO)NC(=O)[C@H](Cc2ccccc2)NC1=O | Mas-related G-protein receptor X2, truncated (Canis lupus familiaris, UniProt A0A4Y5P885) | calcium mobilization, agonist, FLIPR | U2OS expressing truncated receptor | – | 0.0631 µM |
| C[N+](C)(C)C | Chrnd/Chrna1/Chrne | channel open probability, agonist | mouse | wild type | 1100 µM |
| COc1cc(C(=O)N2CC[C@@H](O)[C@@H](N)C2)cc2nc(-c3cc4ccccc4n3CC3CC3)n(C)c12 | CHRNA1 (Homo sapiens, UniProt P02708) | agonist, intracellular Ca2+ fluorescence | – | – | > 50.1 µM |
| CC[C@H](C)[C@H](NC(=O)[C@H](Cc1ccccc1)NC(=O)[C@H](CC(=O)O)NC(=O)[C@H](CCCNC(=N)N)NC(=O)[C@@H](NC(=O)[C@H](C)NC(=O)[C@H](CC(C)C)NC(=O)[C@H](CC(N)=O)NC(=O)[C@H](CC(=O)O)NC(=O)[C@H](CC(C)C)NC(=O)[C@@H](NC(=O)[C@@H](NC(=O)[C@H](CO)NC(=O)[C@H](CCSC)NC(=O)[C@H](CCC(=O)O)NC(=O)[C@H](CC(=O)O)NC(=O)[C@H](CO)NC(=O)[C@H](Cc1ccccc1)NC(=O)[C@H](CO)NC(=O)CNC(=O)[C@H](CC(=O)O)NC(=O)[C@H](C)NC(=O)[C@@H](N)Cc1c[nH]cn1)[C@@H](C)O)[C@@H](C)CC)[C@@H](C)O)C(=O)N[C@@H](CC(N)=O)C(=O)N[C@@H](Cc1c[nH]c2ccccc12)C(=O)N[C@@H](CC(C)C)C(=O)N[C@H](C(=O)N[C@@H](CCC(N)=O)C(=O)N[C@H](C(=O)N[C@@H](CCCCN)C(=O)N[C@H](C(=O)N[C@H](C(=O)N[C@@H](CC(=O)O)C(=O)O)[C@@H](C)O)[C@@H](C)CC)[C@@H](C)O)[C@@H](C)CC | GLP2R (Homo sapiens, UniProt O95838) | reporter gene, agonist, CRE-luciferase | HEK-293T | – | 0.00434 µM |
| c1cncc([C@@H]2CCCN2)c1 | Chrnd/Chrna1/Chrne | channel open probability, agonist | mouse | wild type | 71 µM |
| CC[C@H](C)[C@H](NC(=O)[C@@H]1CCCN1C(C)=O)C(=O)N[C@@H](CCC(=O)O)C(=O)N[C@H](C(=O)N[C@@H](CS)C(=O)N[C@@H](CCSC)C(=O)N[C@@H](Cc1ccc(O)cc1)C(=O)N[C@@H](CCCNC(=N)N)C(=O)N[C@@H](CCC(=O)O)C(=O)N1CCC[C@H]1C(N)=O)C(C)C | MRGPRX2 | β-arrestin-2 recruitment, agonist | – | – | > 20 µM |
| CC(C)C[C@H](NC(=O)[C@H](Cc1ccccc1)NC(=O)[C@H](Cc1ccc(O)cc1)NC(=O)CNC(=O)[C@H](CCCCN)NC(=O)[C@H](CO)NC(=O)[C@H](CCC(N)=O)NC(=O)CNC(=O)[C@@H](NC(=O)[C@H](CO)NC(=O)[C@@H]1CCCN1C(=O)[C@H](CO)NC(=O)[C@H](CCC(N)=O)NC(=O)[C@H](Cc1ccc(O)cc1)NC(=O)[C@H](CCC(=O)O)NC(=O)[C@H](C)NC(=O)[C@H](CCCCN)NC(=O)[C@@H](N)Cc1ccccc1)C(C)C)C(=O)N[C@@H](Cc1ccccc1)C(=O)N[C@@H](CCCNC(=N)N)C(=O)N1CCC[C@H]1C(=O)N[C@@H](CCCNC(=N)N)C(=O)N[C@@H](CC(N)=O)C(N)=O | Neuromedin-U receptor 1 (Mus musculus, UniProt O55040) | β-arrestin recruitment, agonist | – | – | 0.0005 µM |

Some of these lines once more:
| Structure (SMILES) | target | test | system | conditions | EC50 |
| --- | --- | --- | --- | --- | --- |
| CC(C)C[C@H](NC(=O)[C@H](Cc1ccccc1)NC(=O)[C@H](Cc1ccc(O)cc1)NC(=O)CNC(=O)[C@H](CCCCN)NC(=O)[C@H](CO)NC(=O)[C@H](CCC(N)=O)NC(=O)CNC(=O)[C@@H](NC(=O)[C@H](CO)NC(=O)[C@@H]1CCCN1C(=O)[C@H](CO)NC(=O)[C@H](CCC(N)=O)NC(=O)[C@H](Cc1ccc(O)cc1)NC(=O)[C@H](CCC(=O)O)NC(=O)[C@H](C)NC(=O)[C@H](CCCCN)NC(=O)[C@@H](N)Cc1ccccc1)C(C)C)C(=O)N[C@@H](Cc1ccccc1)C(=O)N[C@@H](CCCNC(=N)N)C(=O)N1CCC[C@H]1C(=O)N[C@@H](CCCNC(=N)N)C(=O)N[C@@H](CC(N)=O)C(N)=O | Neuromedin-U receptor 1 (Mus musculus, UniProt O55040) | β-arrestin recruitment, agonist | – | – | 0.0005 µM |
| O=C1c2ccccc2C(=O)C1C(=O)C(c1ccccc1)c1ccc(Cl)cc1 (stereo not shown) | Nuclear receptor subfamily 1 group I member 3 (Homo sapiens, UniProt Q14994) | cell-based | – | – | 45.5 ± 0.58 µM |
